{"data": "Experimental data gathered from unrelated publications", "note": "Parts stem from different laboratories: compare values within a part only.", "sequence of UniProt P10721 (whole entry, looked up)": "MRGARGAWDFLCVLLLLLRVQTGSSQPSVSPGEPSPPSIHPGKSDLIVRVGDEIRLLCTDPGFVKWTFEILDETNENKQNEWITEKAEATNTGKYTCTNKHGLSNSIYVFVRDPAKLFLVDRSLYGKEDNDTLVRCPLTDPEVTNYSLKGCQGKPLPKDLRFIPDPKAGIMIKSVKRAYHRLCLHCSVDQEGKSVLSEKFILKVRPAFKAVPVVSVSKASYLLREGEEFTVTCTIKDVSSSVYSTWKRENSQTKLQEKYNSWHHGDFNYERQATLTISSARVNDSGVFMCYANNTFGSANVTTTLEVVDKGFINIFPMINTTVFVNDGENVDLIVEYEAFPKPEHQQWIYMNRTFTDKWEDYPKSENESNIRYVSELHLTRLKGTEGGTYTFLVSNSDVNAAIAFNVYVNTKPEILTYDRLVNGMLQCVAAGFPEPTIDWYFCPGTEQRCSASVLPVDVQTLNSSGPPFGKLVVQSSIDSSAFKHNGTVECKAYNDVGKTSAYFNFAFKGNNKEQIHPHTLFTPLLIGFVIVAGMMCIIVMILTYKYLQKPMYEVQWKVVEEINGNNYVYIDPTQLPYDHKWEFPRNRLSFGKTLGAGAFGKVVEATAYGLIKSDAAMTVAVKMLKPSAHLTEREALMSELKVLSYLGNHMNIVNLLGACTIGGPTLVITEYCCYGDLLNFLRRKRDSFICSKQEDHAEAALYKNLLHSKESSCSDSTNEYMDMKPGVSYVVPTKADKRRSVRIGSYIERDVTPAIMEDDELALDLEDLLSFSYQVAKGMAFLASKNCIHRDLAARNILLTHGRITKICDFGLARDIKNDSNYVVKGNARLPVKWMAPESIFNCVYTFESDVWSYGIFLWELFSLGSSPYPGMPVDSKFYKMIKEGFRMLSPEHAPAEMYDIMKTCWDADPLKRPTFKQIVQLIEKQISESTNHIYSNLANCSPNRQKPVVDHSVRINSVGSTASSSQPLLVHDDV"}
{"data": "Sample 1", "target": "RNA binding protein fox-1 homolog 2, RRM domain, GST-SBP tag (RBFOX2, Homo sapiens, UniProt O43251-10, residues 100-194)", "method": "RNA Bind-n-Seq", "molecule type": "RNA", "matrix": "in vitro", "concentration": "365 nM", "notes": "natural RNA segment, single round, ends assumed", "relative to": "no-protein control", "reading": "higher = stronger binding", "constant ends, left off below": "GGGAGUUCUACAGUCCGACGAUC … UGGAAUUCUCGGGUGCCAA"}
{"Oligonucleotide": "GGCUCUGGGCUGGGACAUGGCUUAGAGUGACUUUCUGUCUUAGAAAUCAUGGUAUAUCCUCAGGAGAAUGUUCCGUGUCUCGCAACAACUAAUUAUAUUGCAAAUUAUUA", "RBNS enrichment (R)": 0.568}
{"Oligonucleotide": "UUGGAAUUUACCAGUUAAUUACUCAGCAGAAUGGUGAUCACUCCAGGUAGUUUGGGGCAAAAAUCCGAGGUGCUUGGGAGUUUUGAAUGUUAAGAAUUGACCAUCUGCUU", "RBNS enrichment (R)": 0.987}
{"Oligonucleotide": "UGCUUGCCACUGGAGGAACAGAUGGCUACGUCCGUGUCUGGAAGGUGCCCAGCCUGGAGAAGGUUCUGGAGUUCAAAGCCCACGAAGGGGAGAUUGAAGACCUGGCUUUA", "RBNS enrichment (R)": 1.09}
{"Oligonucleotide": "GAUUUGGUCCCAGAAACCAGCCUGACAUGAGAACAAGCCAGGGUGUCUUCCUGGUGAGUUCUACUCAUGGUCGUUCUCAGGAAAACUGUGUUCCCUUUGUGUGUACGUUU", "RBNS enrichment (R)": 8.91}
{"Oligonucleotide": "UUAAUUCUACUUAACAUUUACUUCUUAAGCUGACAACUAGAUUCAGAAAUACAAGAAAAAUAGACUAUGUCAGGUCCUCAAGUUAUGAGUUAGGACCAACGACUAUUAAC", "RBNS enrichment (R)": 0.516}
{"Oligonucleotide": "GGCAGAUGCCUGACAGAGAGUGGGUUGGCAGACAACACACUAGCAUUUUCACGGGUGUGGGCACAUGGGUGUGGCACCUGGACGUGUGCAGCAUGUGGCGGUCUGUGUGA", "RBNS enrichment (R)": 2.32}
{"Oligonucleotide": "GGUGCUCACAAUUGUCUCUCACAGUGUAUGUGAUUUUUUUAAGGAAAAAAAAAAAUCCCUAUUUAAGAUUCUGAAGGUGCUACCAUUAUUUUGCCACAGACUUUGAAGAA", "RBNS enrichment (R)": 0.646}
{"Oligonucleotide": "UUACCCUUCUUGCUAUUGGAAACUCAGCACAUUUGAACUUGGGUUUGAUUCAGUAUUAACAGAUCUUGACUACACUAAUUCUUUAUAUUAUAGAACCAACGGAAAUAUGG", "RBNS enrichment (R)": 0.69}
{"data": "Sample 2", "target": "PABPC1L2, full length, GST fusion (mouse, UniProt A0ABA7IW68)", "method": "RNAcompete", "molecule type": "RNA", "matrix": "in vitro", "concentration": "20 nM", "notes": "7-mer, probes averaged, single round", "relative to": "mean of 7-mers", "reading": "higher = stronger binding", "Target sequence (chain)": "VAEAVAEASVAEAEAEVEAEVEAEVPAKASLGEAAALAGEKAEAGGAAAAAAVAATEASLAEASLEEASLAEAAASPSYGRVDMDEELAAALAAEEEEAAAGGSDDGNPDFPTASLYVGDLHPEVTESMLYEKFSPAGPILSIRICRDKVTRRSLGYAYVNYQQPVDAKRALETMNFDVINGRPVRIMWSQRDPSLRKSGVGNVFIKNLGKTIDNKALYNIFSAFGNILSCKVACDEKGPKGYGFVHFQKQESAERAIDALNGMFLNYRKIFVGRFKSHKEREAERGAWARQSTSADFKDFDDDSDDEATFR"}
{"Oligonucleotide": "AGUACGG", "7-mer Z-score": 0.0587}
{"Oligonucleotide": "CUUCUCC", "7-mer Z-score": -0.427}
{"Oligonucleotide": "GAGAACU", "7-mer Z-score": -0.137}
{"Oligonucleotide": "AGCUCUU", "7-mer Z-score": -0.309}
{"Oligonucleotide": "CUGAGGC", "7-mer Z-score": -0.142}
{"Oligonucleotide": "ACGUGGU", "7-mer Z-score": -0.128}
{"Oligonucleotide": "UAGGCUG", "7-mer Z-score": 0.00436}
{"Oligonucleotide": "GUAAGCU", "7-mer Z-score": -0.264}
{"data": "Mixed results"}
{"Substance": "SYF2 (Homo sapiens, UniProt O95926)", "target or system": "CRNKL1 (Homo sapiens, UniProt Q9BZJ0)", "test": "cross-linking MS", "system": "cell fractions", "setting": "added: DMTMM", "quantity": "cross-linked residues", "value": "E187 to K288"}
{"Substance": "O=C(NCc1ncc(C(F)(F)F)cc1Cl)c1ccc2c(c1)C1(CCS(=O)(=O)CC1)[C@@H](C1CC1)N2S(=O)(=O)c1ccc(F)cc1", "target or system": "HTR1A (Homo sapiens, UniProt P08908)", "test": "ligand displacement, radioligand", "setting": "10 µM", "quantity": "inhibition", "value": "-13.2%"}
{"Substance": "C[C@H](CS)C(=O)N1CCC[C@H]1C(=O)O", "target or system": "Plasmodium berghei", "test": "inhibitor", "system": "Huh-7, GFP-expressing sporozoites, liver stage", "setting": "10 µM, 24 h", "scale": "relative to: untreated control", "quantity": "infection rate", "value": "96%"}
{"Substance": "MIA3 (Homo sapiens, UniProt Q5JRA6)", "target or system": "MIA2 (Homo sapiens, UniProt Q96PC5)", "test": "cross-linking MS", "setting": "hits only", "quantity": "interaction screen", "value": "cross-linked"}
{"Substance": "CO[C@H]1CC[C@H](CNc2ccc(S(=O)(=O)NC(=O)c3ccc(N4CCN(CC5=C(c6ccc(Cl)cc6)CC(C)(C)CC5)CC4)cc3Oc3cnc4[nH]ccc4c3)cc2[N+](=O)[O-])CC1", "target or system": "Mast/stem cell growth factor receptor Kit, autoinhibited (KIT, Homo sapiens, UniProt P10721)", "test": "cell-free assay, competition with immobilised ligand", "setting": "1 µM", "quantity": "remaining binding", "value": "100%"}
{"note": "For quick reference, copied from above (sample 1):"}
{"Oligonucleotide": "GAUUUGGUCCCAGAAACCAGCCUGACAUGAGAACAAGCCAGGGUGUCUUCCUGGUGAGUUCUACUCAUGGUCGUUCUCAGGAAAACUGUGUUCCCUUUGUGUGUACGUUU", "RBNS enrichment (R)": 8.91}
{"Oligonucleotide": "UGCUUGCCACUGGAGGAACAGAUGGCUACGUCCGUGUCUGGAAGGUGCCCAGCCUGGAGAAGGUUCUGGAGUUCAAAGCCCACGAAGGGGAGAUUGAAGACCUGGCUUUA", "RBNS enrichment (R)": 1.09}
{"Oligonucleotide": "GGCAGAUGCCUGACAGAGAGUGGGUUGGCAGACAACACACUAGCAUUUUCACGGGUGUGGGCACAUGGGUGUGGCACCUGGACGUGUGCAGCAUGUGGCGGUCUGUGUGA", "RBNS enrichment (R)": 2.32}
